Experimental data from different studies.
Each line is one published result; not all experiments were run side by side. “And” joins repeats or separate records; there may be more than shown.
Chain of UniProt P11678 (whole entry, looked up): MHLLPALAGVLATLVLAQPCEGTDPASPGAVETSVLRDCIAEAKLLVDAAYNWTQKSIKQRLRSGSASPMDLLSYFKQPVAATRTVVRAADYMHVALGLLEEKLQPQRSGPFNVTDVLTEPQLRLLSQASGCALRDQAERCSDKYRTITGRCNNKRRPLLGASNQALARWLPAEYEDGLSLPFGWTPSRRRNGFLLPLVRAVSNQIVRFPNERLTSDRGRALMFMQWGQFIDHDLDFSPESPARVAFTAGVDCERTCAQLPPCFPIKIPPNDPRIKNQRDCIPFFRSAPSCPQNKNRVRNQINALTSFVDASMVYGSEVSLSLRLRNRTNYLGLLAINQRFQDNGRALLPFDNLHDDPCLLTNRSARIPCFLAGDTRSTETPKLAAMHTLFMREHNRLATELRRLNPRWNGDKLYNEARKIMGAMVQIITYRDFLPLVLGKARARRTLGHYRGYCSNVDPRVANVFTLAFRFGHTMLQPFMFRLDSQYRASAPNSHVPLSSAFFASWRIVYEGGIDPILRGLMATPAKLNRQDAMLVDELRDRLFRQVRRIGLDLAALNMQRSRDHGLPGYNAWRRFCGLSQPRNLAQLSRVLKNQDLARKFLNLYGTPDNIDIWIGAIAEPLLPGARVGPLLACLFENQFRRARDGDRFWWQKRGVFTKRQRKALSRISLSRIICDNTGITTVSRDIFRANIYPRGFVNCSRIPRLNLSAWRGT
Chain of UniProt O43781 (whole entry, looked up): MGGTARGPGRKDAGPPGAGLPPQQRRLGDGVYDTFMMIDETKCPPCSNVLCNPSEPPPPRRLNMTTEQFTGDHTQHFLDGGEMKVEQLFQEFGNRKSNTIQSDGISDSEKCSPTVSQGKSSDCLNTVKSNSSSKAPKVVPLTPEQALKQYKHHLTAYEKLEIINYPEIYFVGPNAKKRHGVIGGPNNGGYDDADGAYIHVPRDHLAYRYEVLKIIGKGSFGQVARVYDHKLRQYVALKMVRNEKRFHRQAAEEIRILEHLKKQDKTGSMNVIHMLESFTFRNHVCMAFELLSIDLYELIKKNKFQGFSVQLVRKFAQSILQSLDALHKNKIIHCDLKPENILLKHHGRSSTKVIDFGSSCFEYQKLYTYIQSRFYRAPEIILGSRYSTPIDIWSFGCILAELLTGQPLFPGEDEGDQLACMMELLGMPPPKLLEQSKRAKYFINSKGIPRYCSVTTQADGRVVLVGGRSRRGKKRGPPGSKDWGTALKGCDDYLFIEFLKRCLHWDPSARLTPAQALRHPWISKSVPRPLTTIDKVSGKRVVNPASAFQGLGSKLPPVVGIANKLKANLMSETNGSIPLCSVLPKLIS
Chain of UniProt Q13976 (whole entry, looked up): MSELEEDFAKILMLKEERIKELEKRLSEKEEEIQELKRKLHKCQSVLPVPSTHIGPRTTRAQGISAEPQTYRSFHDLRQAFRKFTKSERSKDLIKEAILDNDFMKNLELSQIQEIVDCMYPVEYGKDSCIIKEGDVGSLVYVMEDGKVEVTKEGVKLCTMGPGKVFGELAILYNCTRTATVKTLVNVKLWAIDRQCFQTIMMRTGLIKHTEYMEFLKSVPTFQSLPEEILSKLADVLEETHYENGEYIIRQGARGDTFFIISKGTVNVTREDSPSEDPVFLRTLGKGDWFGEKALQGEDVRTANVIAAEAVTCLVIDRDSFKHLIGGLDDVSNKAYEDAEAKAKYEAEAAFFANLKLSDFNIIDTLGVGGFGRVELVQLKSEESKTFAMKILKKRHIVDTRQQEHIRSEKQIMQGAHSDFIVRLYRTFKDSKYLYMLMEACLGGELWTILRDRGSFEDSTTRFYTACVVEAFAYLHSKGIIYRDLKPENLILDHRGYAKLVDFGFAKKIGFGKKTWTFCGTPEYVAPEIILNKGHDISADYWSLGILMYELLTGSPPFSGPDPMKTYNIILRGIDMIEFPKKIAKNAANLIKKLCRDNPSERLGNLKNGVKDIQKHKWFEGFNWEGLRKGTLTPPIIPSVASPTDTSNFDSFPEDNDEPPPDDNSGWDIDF
Chain of UniProt P53667 (whole entry, looked up): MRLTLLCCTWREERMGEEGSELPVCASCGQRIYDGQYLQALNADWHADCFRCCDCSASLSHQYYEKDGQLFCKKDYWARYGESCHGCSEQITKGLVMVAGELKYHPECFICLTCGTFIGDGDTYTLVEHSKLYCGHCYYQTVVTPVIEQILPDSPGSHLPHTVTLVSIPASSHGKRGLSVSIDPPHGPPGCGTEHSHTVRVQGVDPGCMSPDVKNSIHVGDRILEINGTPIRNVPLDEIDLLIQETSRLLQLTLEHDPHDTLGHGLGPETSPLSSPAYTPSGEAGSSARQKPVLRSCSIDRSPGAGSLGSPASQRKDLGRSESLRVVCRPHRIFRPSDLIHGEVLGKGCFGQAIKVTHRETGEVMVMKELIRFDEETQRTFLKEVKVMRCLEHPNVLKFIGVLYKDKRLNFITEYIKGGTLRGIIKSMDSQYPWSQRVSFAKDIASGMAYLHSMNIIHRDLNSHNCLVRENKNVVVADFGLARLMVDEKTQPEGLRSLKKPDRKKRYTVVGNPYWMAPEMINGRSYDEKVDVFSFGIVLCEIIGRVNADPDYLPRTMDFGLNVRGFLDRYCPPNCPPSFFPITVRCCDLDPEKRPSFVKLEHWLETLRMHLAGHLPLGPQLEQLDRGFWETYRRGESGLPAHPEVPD
Chain of UniProt Q02763 (whole entry, looked up): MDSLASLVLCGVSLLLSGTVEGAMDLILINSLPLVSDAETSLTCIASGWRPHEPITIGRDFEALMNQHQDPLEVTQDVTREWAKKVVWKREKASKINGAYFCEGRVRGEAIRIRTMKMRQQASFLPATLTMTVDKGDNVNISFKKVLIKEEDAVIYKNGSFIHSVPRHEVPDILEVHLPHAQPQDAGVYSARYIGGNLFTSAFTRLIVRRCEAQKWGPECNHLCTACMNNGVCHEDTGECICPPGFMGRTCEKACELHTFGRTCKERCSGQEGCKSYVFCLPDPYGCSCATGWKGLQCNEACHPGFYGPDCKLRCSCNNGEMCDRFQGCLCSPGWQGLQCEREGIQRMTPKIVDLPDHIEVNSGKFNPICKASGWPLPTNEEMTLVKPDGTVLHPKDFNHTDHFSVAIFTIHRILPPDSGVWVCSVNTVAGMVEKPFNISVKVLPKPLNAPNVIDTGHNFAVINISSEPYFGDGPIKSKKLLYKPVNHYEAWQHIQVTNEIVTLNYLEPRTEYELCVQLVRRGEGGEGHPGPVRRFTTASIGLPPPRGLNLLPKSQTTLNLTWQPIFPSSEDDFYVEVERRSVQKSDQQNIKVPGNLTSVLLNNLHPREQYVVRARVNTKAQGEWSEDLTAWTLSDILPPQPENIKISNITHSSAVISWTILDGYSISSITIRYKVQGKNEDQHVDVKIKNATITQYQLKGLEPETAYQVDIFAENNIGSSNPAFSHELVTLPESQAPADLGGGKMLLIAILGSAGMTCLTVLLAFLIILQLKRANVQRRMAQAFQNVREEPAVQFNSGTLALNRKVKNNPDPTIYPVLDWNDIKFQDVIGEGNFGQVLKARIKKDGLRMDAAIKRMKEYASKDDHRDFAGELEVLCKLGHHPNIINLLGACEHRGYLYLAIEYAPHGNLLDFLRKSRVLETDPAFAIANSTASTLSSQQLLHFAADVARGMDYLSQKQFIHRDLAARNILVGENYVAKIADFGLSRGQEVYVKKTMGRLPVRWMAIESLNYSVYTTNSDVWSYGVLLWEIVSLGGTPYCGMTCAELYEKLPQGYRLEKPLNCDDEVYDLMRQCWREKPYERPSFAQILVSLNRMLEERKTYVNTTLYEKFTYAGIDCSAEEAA
Chain of UniProt Q9Y2U5 (whole entry, looked up): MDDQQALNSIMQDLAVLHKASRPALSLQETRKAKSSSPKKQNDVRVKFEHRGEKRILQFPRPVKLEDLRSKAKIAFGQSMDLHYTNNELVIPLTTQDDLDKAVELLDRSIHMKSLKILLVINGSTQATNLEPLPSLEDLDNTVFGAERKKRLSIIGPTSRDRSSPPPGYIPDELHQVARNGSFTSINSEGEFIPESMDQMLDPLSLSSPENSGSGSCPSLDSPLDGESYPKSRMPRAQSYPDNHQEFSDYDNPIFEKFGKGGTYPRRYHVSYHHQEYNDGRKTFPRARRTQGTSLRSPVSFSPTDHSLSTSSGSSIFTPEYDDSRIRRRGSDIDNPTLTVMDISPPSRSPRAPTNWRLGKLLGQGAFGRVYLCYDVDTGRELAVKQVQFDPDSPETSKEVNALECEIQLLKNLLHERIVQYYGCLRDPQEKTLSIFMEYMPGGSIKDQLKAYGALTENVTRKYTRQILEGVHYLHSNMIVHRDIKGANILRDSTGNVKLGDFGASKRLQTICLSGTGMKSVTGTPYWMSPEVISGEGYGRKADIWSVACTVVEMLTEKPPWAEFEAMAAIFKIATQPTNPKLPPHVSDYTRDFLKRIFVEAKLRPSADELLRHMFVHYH

NC/C(=C\F)COc1cccc(Cn2c(=S)[nH]c(=O)c3[nH]cnc32)c1
remaining activity (Eosinophil peroxidase (Homo sapiens, UniProt P11678); H2O2 electrode; 2.5 µM; reference: control): 170% and 162%

COc1cc(Nc2ncc3c(n2)-c2ccc(Cl)cc2C(c2c(F)cccc2OC)=NC3)ccc1C(=O)O
remaining activity (BRAF V599E; kinase activity; 1 µM): 92%

Cc1cc(Nc2cc(N3CCN(C)CC3)nc(Sc3ccc(NC(=O)C4CC4)cc3)n2)[nH]n1
remaining activity (PRKG1 (Homo sapiens, UniProt Q13976); kinase activity, KinaseProfiler; 0.03 µM, species human; reference: control): 96%

C=CC(=O)N1CCC[C@@H](n2nc(-c3ccc(Oc4ccccc4)cc3)c3c(N)ncnc32)C1
remaining activity (DYRK3 (Homo sapiens, UniProt O43781); 0.1 µM): 108%

O=C(NC1CCC1)c1ccc2nc(-c3cccc(NS(=O)(=O)NCCN4CCCCC4)c3)cn2c1
remaining activity (LIM domain kinase 1 (LIMK1, Homo sapiens, UniProt P53667); enzyme activity; 10 µM): 100%

COc1cc(-c2cncc3c2CN(C)Cc2cc(N4CCNCC4)ccc2-3)cc(OC)c1OC
remaining activity (MAP3K2 (Homo sapiens, UniProt Q9Y2U5); kinase activity; 1 µM, human enzyme, with: ATP 10 µM; reference: DMSO control): 103%

O=C(O)c1ccc(Nc2ncc3c(n2)-c2ccc(Cl)cc2C(c2c(F)cccc2F)=NC3)cc1
remaining activity (human EGFR(L861Q); kinase activity; 1 µM): 92%

COc1cc(F)ccc1-c1ncnc(Nc2cccc(C[S@](C)(=N)=O)c2)n1
remaining activity (TEK (Homo sapiens, UniProt Q02763); kinase activity; 10 µM, with: ATP 10 µM): 81%

Repeated from above:
COc1cc(Nc2ncc3c(n2)-c2ccc(Cl)cc2C(c2c(F)cccc2OC)=NC3)ccc1C(=O)O
remaining activity (BRAF V599E; kinase activity; 1 µM): 92%
